Measurements gathered from unrelated publications.
Compare with care: the assays were run in different laboratories.
Target: Mitogen-activated protein kinase 11 (MAPK11, Homo sapiens, UniProt Q15759)

Compound	test	conditions	endpoint	value
CCN1CCN(Cc2ccc(NC(=O)c3ccc(C)c(NC(=O)c4cncc(-c5cccs5)c4)c3)cc2C(F)(F)F)CC1	binding, competition with immobilised ligand	1 µM	remaining binding	1%
Cc1ccc(-c2c(/C=C(\C#N)C(=O)NC(C)C)n(CCCO)c3ncnc(N)c23)cc1	cell-free assay, competition with immobilised ligand	1 µM	remaining binding	83%
Cc1cnc2nc1Nc1cccc(c1)COC/C=C/COCc1cc(ccc1OCCN1CCOCC1)N2	binding, competition with immobilised ligand	0.1 µM	remaining binding	100%
CN1CCN(Cc2ccc(-c3ccc(CO[C@H]4CCC[C@@H]4NC(=O)c4cc(-c5cnn(C)c5)cnc4N)cc3)cc2)CC1	enzyme activity, inhibitor	0.1 µM	inhibition	9%
C=CC(=O)Nc1cccc(-c2cnc3[nH]cc(C(=O)NC(C)(C)C)c3n2)c1	enzyme activity, inhibitor	0.1 µM	inhibition	2%
NC(=O)C[C@H]1CCc2sc3ncnc(O[C@H]4CC[C@H](N5CCOCC5)CC4)c3c21	enzyme activity, inhibitor	10 µM	inhibition	5%
CNC(=O)C1CCN(c2cc(C)c(F)cc2NC(=O)c2ccc(-c3cc(O)ccc3C)c(C)c2)CC1	binding, competition with immobilised ligand	1 µM	remaining binding	89%
Cc1cccc(-c2ccc3nc(NC(=O)C4CCOCC4)nn3c2)c1	enzyme activity, Dundee kinase panel	10 µM	remaining activity	87%
CN1CCN(Cc2ccc(NC(=O)c3cccc(C#Cc4cnc(N)c5ncccc45)c3)cc2C(F)(F)F)CC1	cell-free assay, competition with immobilised ligand	50 nM	remaining binding	70%
CCN1CCN(Cc2ccc(C(=O)Nc3ccc(C)c(NCc4cnc5[nH]ccc5c4OC)c3)cc2C(F)(F)F)CC1	binding, competition with immobilised ligand	1 µM	remaining binding	6.4%
CN1CC[C@@H](COc2cnc(C#N)cc2-c2ccn3nc(NC(=O)C4CC4)cc3c2)C1	enzyme activity, inhibitor	1 µM	inhibition	2%
COc1cc(Nc2nccc(-c3cnn4nc(OC)ccc34)n2)cc(C(F)(F)F)c1	binding, competition with immobilised ligand	1 µM	remaining binding	100%
CC(=O)N1c2ccc(-c3ccc(CNC(=O)c4cn5cc(-c6cnc(N)nc6)nc(N6CCOCC6)c5n4)cc3)cc2CC[C@@H]1C	KINOMEscan	10 µM	remaining binding	94%
COc1c(Cl)cccc1Nc1c(-c2ccncc2C#C[C@@]2(C)CCCN2C(=O)/C=C/CN(C)C)[nH]c2c1C(=O)NCC2	binding, competition with immobilised ligand	3 µM	remaining binding	27%

Repeated from above:
Compound	test	conditions	endpoint	value
Cc1ccc(-c2c(/C=C(\C#N)C(=O)NC(C)C)n(CCCO)c3ncnc(N)c23)cc1	cell-free assay, competition with immobilised ligand	1 µM	remaining binding	83%
